Experimental data gathered from unrelated publications.
Parts stem from different laboratories: compare values within a part only. Values joined by “and” are separate records of one study, mostly repeats; a detail may differ.
Sequence of UniProt P41595 (whole entry, looked up): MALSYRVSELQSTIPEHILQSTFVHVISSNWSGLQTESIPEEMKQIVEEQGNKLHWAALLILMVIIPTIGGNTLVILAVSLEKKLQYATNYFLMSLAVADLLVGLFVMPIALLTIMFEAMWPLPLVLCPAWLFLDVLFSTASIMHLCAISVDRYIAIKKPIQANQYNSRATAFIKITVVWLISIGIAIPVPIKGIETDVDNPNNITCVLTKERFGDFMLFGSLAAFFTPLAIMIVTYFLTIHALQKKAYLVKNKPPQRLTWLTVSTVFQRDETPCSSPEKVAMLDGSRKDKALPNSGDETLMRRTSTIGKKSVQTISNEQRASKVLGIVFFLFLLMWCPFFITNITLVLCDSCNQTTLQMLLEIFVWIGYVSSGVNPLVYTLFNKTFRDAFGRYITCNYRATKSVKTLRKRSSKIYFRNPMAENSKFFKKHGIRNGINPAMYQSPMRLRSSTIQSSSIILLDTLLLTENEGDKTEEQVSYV

Study 1
Structure (SMILES): COc1cc(C(=O)N2CCC(N3CCN(C)CC3)CC2)ccc1Nc1ncc2c(n1)N(C)c1ccccc1C(=O)N2C
The inhibition was -15.2% (p38alpha (mouse); probe labelling, inhibitor, KiNativ ActivX ATP probe; mouse brain lysate; 1 µM, peptide QELNkTIWEVPER).
MYLK; KiNativ ADP probe; mouse brain lysate; 0.1 µM, LYS1 site — inhibition: 26.8%.
RSK2 domain 1 (mouse); probe labelling, inhibitor, KiNativ ActivX ATP probe; mouse brain lysate; 1 µM, activation loop peptide — inhibition: -8.9%.
For CaMKK1 (mouse); probe labelling, KiNativ, refers to: Lys1 site peptide; brain tissue lysate (mouse); 0.1 µM, together with: ADP acyl-phosphate probe: inhibition read 8.7%.
FYN (mouse); probe labelling, KiNativ ATP probe; mouse brain lysate; 1 µM, LYS1 labelled site — inhibition: 0.6% and -8.2%.
human PBMC; probe labeling, inhibitor, KiNativ profiling; cell lysate; concentration not given, LYS1 site, together with: ATP acyl-phosphate probe 1 µM — inhibition: 18.2%.
mouse CaMK2α/β/δ/γ; probe labelling, KiNativ ADP probe; mouse brain lysate; 1 µM, LYS2 site DLkPENLLLASK — inhibition: -2.1%.

Study 2
Organism: Sarcocystis neurona
Read-out: parasite growth
Tested at: 10 µM
Time: 96 h
Setting: first screen
Relative to: untreated
For `COC(=O)CCc1ccc(OCC(O)CNC(C)C)cc1` (stereo not shown), “log2 fold change” read -0.06.
For `O=C1c2c(O)cc(O)cc2OC(c2ccc(O)c(O)c2)C1O` (stereo not shown), “log2 fold change” read 0.09.
For `Cc1cccc(Nc2ccncc2S(=O)(=O)NC(=O)NC(C)C)c1`, “log2 fold change” read 0.23.
Under “log2 fold change”, `CC(COc1ccccc1)NC(C)C(O)c1ccc(O)cc1` (stereo not shown) is recorded as 0.034.
`CCCCc1oc2ccccc2c1C(=O)c1cc(I)c(OCCN(CC)CC)c(I)c1`: “log2 fold change” -0.34.
For `CCN1CCN(C(=O)N[C@@H](C(=O)N[C@@H]2C(=O)N3[C@@H]2SC(C)(C)[C@@H]3C(=O)O)c2ccccc2)C(=O)C1=O`, “log2 fold change” read 0.018.
`CN1[C@@H]2C[C@@H](OC(=O)[C@H](CO)c3ccccc3)C[C@H]1[C@@H]1O[C@@H]12` — result for “log2 fold change”: 0.19.
Under “log2 fold change”, `CC1(C)O[C@@H]2C[C@H]3[C@@H]4CCC5=CC(=O)C=C[C@]5(C)[C@@]4(F)[C@@H](O)C[C@]3(C)[C@]2(C(=O)CO)O1` is recorded as -0.000194.

Study 3
Target: Serine/threonine-protein kinase Sgk2 (SGK2, Homo sapiens, UniProt Q9HBY8)
Sequence of UniProt Q9HBY8 (whole entry, looked up): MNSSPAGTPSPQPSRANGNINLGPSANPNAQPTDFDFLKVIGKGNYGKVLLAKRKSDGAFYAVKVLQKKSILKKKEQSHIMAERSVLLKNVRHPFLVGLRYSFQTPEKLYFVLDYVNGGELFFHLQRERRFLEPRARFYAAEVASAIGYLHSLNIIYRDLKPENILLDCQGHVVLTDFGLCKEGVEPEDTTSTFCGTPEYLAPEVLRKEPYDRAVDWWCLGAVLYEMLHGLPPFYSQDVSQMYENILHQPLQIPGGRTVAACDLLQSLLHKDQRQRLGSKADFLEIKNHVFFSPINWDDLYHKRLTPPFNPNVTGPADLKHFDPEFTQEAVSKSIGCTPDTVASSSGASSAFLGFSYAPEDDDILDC
Read-out: enzyme activity
Action: inhibitor
Tested at: 0.5 µM
Relative to: control
The remaining activity of `Nc1ccc2ncnc(NCCc3ccc(Oc4ccccc4)cc3)c2c1` is reported as 99.6%.
The remaining activity of `CCOC(=O)c1c(C)[nH]c(/C=C2\C(=O)Nc3ccccc32)c1C` is reported as 93.7%.
The remaining activity of `O=C1NC(=O)C(c2cn(CCCO)c3ncccc23)=C1c1cnccn1` is reported as 96.9%.
`Cc1ccc(Nc2nccc(N(C)c3ccc4c(C)n(C)nc4c3)n2)cc1S(N)(=O)=O` has a remaining activity of 160%.
With `CC(C)[C@H](CO)Nc1nc(Nc2cc(N)cc(Cl)c2)c2ncn(C(C)C)c2n1` the remaining activity was 121%.
For `O=C(O)c1ccc2c3c1cccc3c(=O)n1c3ccccc3nc21`, the remaining activity was 103%.
For `NCCNc1ncc(C(N)=O)c(Nc2cccc(C(F)(F)F)c2)n1`, the remaining activity was 99.7%.
`COc1ccc(OC)c2c(=S)c3ccccc3[nH]c12` has a remaining activity of 96.5%.
With `Cn1sc(=O)n(Cc2ccccc2)c1=O` the remaining activity was 100%.
With `COc1cc2ncnc(Nc3ccc(F)c(Cl)c3)c2cc1OCCCN1CCOCC1` the remaining activity was 117%.
`COc1cc2ncnc(Nc3ccc(Oc4ccccc4)cc3)c2cc1OC` has a remaining activity of 113%.
`O=S(=O)(c1cccc2cnccc12)N1CCCNCC1` has a remaining activity of 91.9%.
The remaining activity of `Cn1c2ccccc2c2c3c(c4c5ccccc5n(CCC#N)c4c21)CNC3=O` is reported as 94%.
For `COc1cc2nccc(Oc3ccc(NC(=S)NC(=O)c4ccccc4C)cc3)c2cc1OC`, the remaining activity was 97.3%.
`CN(C)c1ccc(C=C2C(=O)Nc3ccccc32)cc1` has a remaining activity of 98.6%.
The remaining activity of `Cc1nc(-c2ccccc2)c(-c2ccncc2)o1` is reported as 105%.

Study 4
Target: Beta-1 adrenergic receptor (ADRB1, Homo sapiens, UniProt P08588)
Sequence of UniProt P08588 (whole entry, looked up): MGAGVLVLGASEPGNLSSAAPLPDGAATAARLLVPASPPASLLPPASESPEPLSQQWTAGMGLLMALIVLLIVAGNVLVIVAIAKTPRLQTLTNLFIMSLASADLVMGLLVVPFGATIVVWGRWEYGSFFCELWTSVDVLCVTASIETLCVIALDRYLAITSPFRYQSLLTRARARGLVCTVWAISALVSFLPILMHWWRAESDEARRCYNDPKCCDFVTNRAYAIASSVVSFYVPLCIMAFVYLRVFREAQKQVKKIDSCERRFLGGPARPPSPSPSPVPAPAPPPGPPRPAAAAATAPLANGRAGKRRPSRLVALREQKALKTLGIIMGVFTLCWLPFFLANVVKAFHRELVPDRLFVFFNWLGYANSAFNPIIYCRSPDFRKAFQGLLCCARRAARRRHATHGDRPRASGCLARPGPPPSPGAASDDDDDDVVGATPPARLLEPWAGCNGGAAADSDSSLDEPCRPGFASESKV
Action: antagonist
With `Cc1cc(I)ccc1Nc1nc(NCCN2CCOCC2)nc(N2CCOCC2)n1` the IC50 was ≥ 100 µM.
With `Cc1ccccc1-c1n[nH]c2ncc(-c3ccccc3C#N)nc12` the IC50 was ≥ 100 µM.
For `Cc1nnc(CN(C)Cc2ccccc2OCC(O)CN2CCSCC2)o1` (stereo not shown), the IC50 was ≥ 100 µM.
With `Cc1cc(-c2nc3ccccc3s2)nc2ccccc12` the IC50 was ≥ 100 µM.
`Cc1ccc2c(C(=O)N3CCC(F)(F)CC3)cc(-c3cnn(C(C)C)c3)nc2c1` gave an IC50 of ≥ 100 µM.

Other studies, line by line
`O=C(NC[C@@H]1[C@H]2CN(C(=O)OCc3cc(C(F)(F)F)cc(C(F)(F)F)c3)C[C@@H]12)c1ccc2[nH]nnc2c1` has an inhibition of 45.9% (5-hydroxytryptamine receptor 2B (HTR2B, Homo sapiens, UniProt P41595); cell-free assay; 10 µM).

Some of these lines once more (study 3):
The remaining activity of `Cn1c2ccccc2c2c3c(c4c5ccccc5n(CCC#N)c4c21)CNC3=O` is reported as 94%.
For `COc1cc2nccc(Oc3ccc(NC(=S)NC(=O)c4ccccc4C)cc3)c2cc1OC`, the remaining activity was 97.3%.
`CN(C)c1ccc(C=C2C(=O)Nc3ccccc32)cc1` has a remaining activity of 98.6%.
